Assay results gathered from unrelated publications.
Every numbered part comes from another study and shows a few of its results, in no order.

Block 1 — technique: RNA Bind-n-Seq; molecule type: RNA; sample: in vitro; tested at: 1 µM; notes: whole 134-nt RNA, ends assumed; with: 150 mM KCl; relative to: input library; reading: higher = stronger binding
Target: Ras GTPase-activating protein-binding protein 1, RRM domain (G3BP1, Homo sapiens, UniProt Q13283)
Chain of UniProt Q13283 (whole entry, looked up): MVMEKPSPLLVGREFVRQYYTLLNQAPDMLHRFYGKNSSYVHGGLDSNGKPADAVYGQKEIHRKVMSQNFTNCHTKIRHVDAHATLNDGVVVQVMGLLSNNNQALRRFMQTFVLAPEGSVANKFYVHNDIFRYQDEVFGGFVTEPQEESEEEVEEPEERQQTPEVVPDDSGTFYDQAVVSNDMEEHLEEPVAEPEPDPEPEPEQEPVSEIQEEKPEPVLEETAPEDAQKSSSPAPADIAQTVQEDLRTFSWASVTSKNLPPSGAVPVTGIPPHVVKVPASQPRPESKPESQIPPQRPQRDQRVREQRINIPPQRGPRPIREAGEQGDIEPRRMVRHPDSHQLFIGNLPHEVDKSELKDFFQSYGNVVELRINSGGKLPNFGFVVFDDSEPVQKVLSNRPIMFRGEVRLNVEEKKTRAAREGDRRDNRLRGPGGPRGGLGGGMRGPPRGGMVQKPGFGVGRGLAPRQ
| Strand | log2 enrichment |
| --- | --- |
| GGGAGUUCUACAGUCCGACGAUCUCCUCAAGUCCUGUGCUACACAUCGUAUGUACCGAAUCGGAGGUGGAAAGGAAAGUAUUAUGUUACGCCGUUCGGAUCUGCACUUCCAGCUGGAAUUCUCGGGUGUCAAGG | -0.231 |
| GGGAGUUCUACAGUCCGACGAUCCACAGACAACACGCACCCACACAGACACAGAGGGAAGGGGUUGGGAUGGGGACAGGGUAAACAGCAGGGCGGGGUAGGACCCCAGCCCCUUGGAAUUCUCGGGUGUCAAGG | -0.131 |
| GGGAGUUCUACAGUCCGACGAUCAGUCCUGUGCUACACAUCGUAUGUACCGAAUCGGUUUUUGGUUUUUGGGGUUUUUGGAAAGUAUUAUGUUACGCCGUUCGGAUCUGCACUUGGAAUUCUCGGGUGUCAAGG | -0.0945 |
| GGGAGUUCUACAGUCCGACGAUCCCUGUGCUACACAUCGUAUGUACCGAAUCGGGGAGGGGAAAAAAAGGGGUUUUUUUGGGGAAAGUAUUAUGUUACGCCGUUCGGAUCUGCUGGAAUUCUCGGGUGUCAAGG | 0.572 |

Block 2 — technique: RNA Bind-n-Seq; molecule type: RNA; sample: in vitro; tested at: 365 nM; relative to: no-protein control; reading: higher = stronger binding
Target: RNA binding protein fox-1 homolog 2, RRM domain, GST-SBP tag (RBFOX2, Homo sapiens, UniProt O43251-10, residues 100-194)
Notes: natural RNA segment, single round, ends assumed
Target sequence (chain): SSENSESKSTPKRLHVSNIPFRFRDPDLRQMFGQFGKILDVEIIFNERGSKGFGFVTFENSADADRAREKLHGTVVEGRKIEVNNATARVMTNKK
| Strand | RBNS enrichment (R) |
| --- | --- |
| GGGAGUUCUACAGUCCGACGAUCGUUUCUUUUCACAUCCCAGCCUCCCAUGGGCACUUCUAAGAAGAGAGGGGAUUUCUUGGAAAAGGAGAGAGGAAUCCCCUAGAGCAGGGAAAGCAGUGCCUGCCAGCUGUUGGAAUUCUCGGGUGCCAA | 0.921 |
| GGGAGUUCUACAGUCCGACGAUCAUAAAAUGAAAUUUGUUUCUCAUGAUAUGAAUCUUGCAGGUAAGAUGUAGGGUUUAUUGAAAAUGUGUGGGUUAAAUGCUUUCAGGUACACCAAUUCUUUCUACUAAAUUUGGAAUUCUCGGGUGCCAA | 0.455 |
| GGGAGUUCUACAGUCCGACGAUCGGUCUGUGGUCACUCUCCACCUUGUCCUAGUGUUGCCAUGGUAGCAUGGCUUUGUAGUUUGCAUUUAACCUGGGGAUCUAUGCAUCCUGUCAAGAGGGUGGGUCCCCAUCUGGAAUUCUCGGGUGCCAA | 2.32 |
| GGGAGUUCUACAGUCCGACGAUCUUUUGCACAAAUGACUCUUUUAUAUUUAAUUCGAUUUCAUUGCCUCCCUUCUUAAAGCCAACAGGCUCAGUUUACAAACCUGUGAGCUACUGUUGGCUGCUGCCCUCCUUUGGAAUUCUCGGGUGCCAA | 0.872 |
| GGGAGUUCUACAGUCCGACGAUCAUUUAUUAUUAAUUUAUUGGGGUGACCUUCUUGGGGACUCGGGGGCUGGUCUGAUGGAACUGUGUAUUUAUUUAAAACUCUGGUGAUAAAAAUAAAGCUGUCUGAACUGUUGGAAUUCUCGGGUGCCAA | 0.721 |
| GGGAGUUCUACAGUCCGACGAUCUACGUCAUUUGUUAAUGCUUUUGUGAAGUGAGUUAAACGAGCUUUCUGUAUUUUAAUGCUUUAGUGUUUCAGUUUUAUAAGUGAAGAUUUUAUUUUAAAAACCAGUGGGAUGGAAUUCUCGGGUGCCAA | 0.482 |
| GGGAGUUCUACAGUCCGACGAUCAUUUCAUUGUUUUAAUCAAGGGCUUAAGGUGUCCUCAUUCUUGGACAUGAGAUGUAUUUAAGGAAAGUAGUCACUAUUCAAAGAACAAAUUAAAGUGUUUAUAACAAACUUGGAAUUCUCGGGUGCCAA | 0.325 |
| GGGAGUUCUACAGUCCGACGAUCCCCUUUUCCUUUGUGUACUCUAUACUGGAGUUCCCUUCUUCCUCUUGCUGUAGGCUCAAUCCCAUACCGACAUCUACAACUAAUCUUUCCCAUCAACUCUGUGUGAAGGCUGGAAUUCUCGGGUGCCAA | 0.504 |

Block 3 — technique: protein binding microarray; molecule type: double-stranded DNA, one strand shown; sample: in vitro; tested at: not given; relative to: not given; reading: higher = stronger binding
Target: Histone acetyltransferase KAT6A, winged helix 2, GST fusion (KAT6A, Homo sapiens, UniProt Q92794, residues 85-181)
Notes: 8-mer, flanks averaged, mean of 2 arrays, mostly near background
Residues (chain): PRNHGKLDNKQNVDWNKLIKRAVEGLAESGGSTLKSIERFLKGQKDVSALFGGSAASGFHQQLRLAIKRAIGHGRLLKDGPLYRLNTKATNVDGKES
| Strand | E-score |
| --- | --- |
| ATGATATG | 0.145 |
| GGGAATTA | -0.0301 |
| CAAGCTAA | -0.00309 |
| GGGGCGCA | -0.037 |
| AGACCAAT | -0.0831 |
| CGTGACCC | 0.0591 |
| ATATATGA | -0.0302 |
| ACGATCTC | -0.0985 |
| AGTCTCAC | 0.0103 |
| CGAGATAC | 0.0345 |
| AATCGATC | -0.00755 |

Mixed results
| Molecule | target | test | system | setting | scale | measurement | value |
| --- | --- | --- | --- | --- | --- | --- | --- |
| PhoQ, residues 284 288 289 292 302 303 TLMATV | PhoP, residues 12 14 15 18 19 NMSSL (Escherichia coli, UniProt P23836) | Sort-seq, measured: YFP reporter | E. coli | PhoQ-PhoP variant library, with: 10 µM Mg2+ | relative to: high Mg2+ state, higher = stronger signaling | fold induction | 49.1 |

Some of these lines once more (block 1):
| Strand | log2 enrichment |
| --- | --- |
| GGGAGUUCUACAGUCCGACGAUCUCCUCAAGUCCUGUGCUACACAUCGUAUGUACCGAAUCGGAGGUGGAAAGGAAAGUAUUAUGUUACGCCGUUCGGAUCUGCACUUCCAGCUGGAAUUCUCGGGUGUCAAGG | -0.231 |
| GGGAGUUCUACAGUCCGACGAUCCACAGACAACACGCACCCACACAGACACAGAGGGAAGGGGUUGGGAUGGGGACAGGGUAAACAGCAGGGCGGGGUAGGACCCCAGCCCCUUGGAAUUCUCGGGUGUCAAGG | -0.131 |
| GGGAGUUCUACAGUCCGACGAUCAGUCCUGUGCUACACAUCGUAUGUACCGAAUCGGUUUUUGGUUUUUGGGGUUUUUGGAAAGUAUUAUGUUACGCCGUUCGGAUCUGCACUUGGAAUUCUCGGGUGUCAAGG | -0.0945 |
